Results from different studies.
Numbered parts are unrelated; each lists some results of a single study.
Chain of UniProt Q9Y616 (whole entry, looked up): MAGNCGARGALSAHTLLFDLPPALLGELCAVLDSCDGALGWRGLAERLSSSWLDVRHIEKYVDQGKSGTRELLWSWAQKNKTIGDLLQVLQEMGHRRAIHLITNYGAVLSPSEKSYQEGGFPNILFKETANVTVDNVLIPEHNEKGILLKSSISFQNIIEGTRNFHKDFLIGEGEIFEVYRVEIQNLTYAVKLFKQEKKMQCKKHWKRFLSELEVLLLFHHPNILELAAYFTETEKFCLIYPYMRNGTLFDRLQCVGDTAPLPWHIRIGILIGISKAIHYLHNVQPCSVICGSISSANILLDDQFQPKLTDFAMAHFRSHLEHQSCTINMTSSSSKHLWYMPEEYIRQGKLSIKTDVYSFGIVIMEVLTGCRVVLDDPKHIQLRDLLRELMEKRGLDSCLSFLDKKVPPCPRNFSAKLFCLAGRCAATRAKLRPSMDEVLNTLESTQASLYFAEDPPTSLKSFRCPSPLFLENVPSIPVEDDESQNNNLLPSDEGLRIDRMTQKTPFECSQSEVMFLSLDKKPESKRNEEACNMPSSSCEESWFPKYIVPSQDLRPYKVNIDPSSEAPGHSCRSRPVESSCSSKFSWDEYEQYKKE
Chain of UniProt Q8TD19 (whole entry, looked up): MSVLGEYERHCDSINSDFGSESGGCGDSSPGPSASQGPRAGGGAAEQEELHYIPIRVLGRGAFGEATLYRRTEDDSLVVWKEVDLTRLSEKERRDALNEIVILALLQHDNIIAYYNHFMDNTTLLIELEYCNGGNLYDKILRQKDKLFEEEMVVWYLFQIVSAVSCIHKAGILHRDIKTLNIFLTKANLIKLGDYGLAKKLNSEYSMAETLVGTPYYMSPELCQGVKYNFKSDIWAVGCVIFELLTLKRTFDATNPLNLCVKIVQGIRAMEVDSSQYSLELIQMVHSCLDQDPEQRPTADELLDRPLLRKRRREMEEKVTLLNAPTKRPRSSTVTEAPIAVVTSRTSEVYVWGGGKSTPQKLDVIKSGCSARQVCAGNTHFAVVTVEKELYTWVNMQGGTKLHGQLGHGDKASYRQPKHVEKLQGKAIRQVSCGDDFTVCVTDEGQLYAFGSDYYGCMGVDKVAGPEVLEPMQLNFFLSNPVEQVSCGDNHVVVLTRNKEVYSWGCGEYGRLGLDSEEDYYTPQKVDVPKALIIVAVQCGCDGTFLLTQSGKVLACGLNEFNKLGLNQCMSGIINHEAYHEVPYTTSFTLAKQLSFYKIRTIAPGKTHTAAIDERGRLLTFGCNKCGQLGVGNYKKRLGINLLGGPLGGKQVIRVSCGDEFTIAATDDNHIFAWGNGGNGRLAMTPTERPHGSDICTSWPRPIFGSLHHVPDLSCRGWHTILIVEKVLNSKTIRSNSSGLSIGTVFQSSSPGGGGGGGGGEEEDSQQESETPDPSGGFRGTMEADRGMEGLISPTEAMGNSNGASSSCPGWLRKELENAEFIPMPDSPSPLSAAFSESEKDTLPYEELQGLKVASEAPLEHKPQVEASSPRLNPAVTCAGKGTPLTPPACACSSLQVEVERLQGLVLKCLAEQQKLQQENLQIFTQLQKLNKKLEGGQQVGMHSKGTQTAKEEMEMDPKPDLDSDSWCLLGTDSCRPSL
Chain of UniProt Q86YV6 (whole entry, looked up): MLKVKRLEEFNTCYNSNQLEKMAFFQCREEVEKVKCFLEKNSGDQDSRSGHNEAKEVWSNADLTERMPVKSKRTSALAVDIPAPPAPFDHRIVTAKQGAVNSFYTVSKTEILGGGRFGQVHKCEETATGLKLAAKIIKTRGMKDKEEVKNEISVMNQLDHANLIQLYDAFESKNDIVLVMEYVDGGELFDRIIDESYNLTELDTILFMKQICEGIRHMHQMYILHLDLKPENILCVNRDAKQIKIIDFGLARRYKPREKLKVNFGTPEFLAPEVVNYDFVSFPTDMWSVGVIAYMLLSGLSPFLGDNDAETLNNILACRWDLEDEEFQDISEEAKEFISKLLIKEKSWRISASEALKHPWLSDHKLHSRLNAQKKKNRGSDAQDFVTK

Series 1 — effect on: cell-free assay; method: competition with immobilised ligand; concentration: 1 µM; measurement: remaining binding
SMILES: O=C(N1CCS(=O)(=O)CC1)N1C[C@H](c2ccc(OC(F)(F)F)cc2)C[C@H](c2nc(C3CC3)no2)C1
target = PIK3C3 (Homo sapiens, UniProt Q8NEB9); result = 100%
target = Ribosomal protein S6 kinase alpha-5, C-terminal kinase domain (RPS6KA5, Homo sapiens, UniProt O75582); result = 100%
target = MYLK4 (Homo sapiens, UniProt Q86YV6); result = 100%
target = NEK9 (Homo sapiens, UniProt Q8TD19); result = 100%
target = PIK3C2G (Homo sapiens, UniProt O75747); result = 93%
target = EPHA5 (Homo sapiens, UniProt P54756); result = 96%
target = KIT (Homo sapiens, UniProt P10721, V559D); result = 100%
target = PKMYT1 (Homo sapiens, UniProt Q99640); result = 100%

Series 2 — mode: inhibitor; concentration: 5 µM; measurement: log2 fold change
SMILES: O=C1NC(=O)C(c2cn(-c3ccccc3)nc2-c2ccc(F)cc2)N1 (stereo not drawn)
target = STK38L (Homo sapiens, UniProt Q9Y2H1); test = kinase-CDC37 interaction; test system = human cells; scale = reference: vehicle; result = 0.252
target = CAMK2B (Homo sapiens, UniProt Q13554); test = cell-based kinome profiling; test system = human cells; scale = reference: vehicle control; result = -0.164
target = Interleukin-1 receptor-associated kinase 3, with CDC37 (IRAK3, Homo sapiens, UniProt Q9Y616); test = cell-based kinome screen; test system = human cells; scale = reference: vehicle; result = -0.052
target = DCLK2 (Homo sapiens, UniProt Q8N568); test system = human cells; scale = reference: vehicle; result = -0.636
target = FLT4 (Homo sapiens, UniProt P35916, H1035R); test = cell-based translocation; test system = human cells; conditions = hereditary lymphedema type 1A variant; scale = reference: vehicle; result = -0.29
target = Ephrin type-B receptor 1, with CDC37 (EPHB1, Homo sapiens, UniProt P54762); test = cell-based kinome screen; test system = human cells; scale = reference: vehicle; result = -0.016

Series 3 — effect on: enzyme activity; mode: inhibitor; concentration: 0.5 µM; reference: control; measurement: remaining activity
Target: Tyrosine-protein kinase FRK (FRK, Homo sapiens, UniProt P42685)
Chain of UniProt P42685 (whole entry, looked up): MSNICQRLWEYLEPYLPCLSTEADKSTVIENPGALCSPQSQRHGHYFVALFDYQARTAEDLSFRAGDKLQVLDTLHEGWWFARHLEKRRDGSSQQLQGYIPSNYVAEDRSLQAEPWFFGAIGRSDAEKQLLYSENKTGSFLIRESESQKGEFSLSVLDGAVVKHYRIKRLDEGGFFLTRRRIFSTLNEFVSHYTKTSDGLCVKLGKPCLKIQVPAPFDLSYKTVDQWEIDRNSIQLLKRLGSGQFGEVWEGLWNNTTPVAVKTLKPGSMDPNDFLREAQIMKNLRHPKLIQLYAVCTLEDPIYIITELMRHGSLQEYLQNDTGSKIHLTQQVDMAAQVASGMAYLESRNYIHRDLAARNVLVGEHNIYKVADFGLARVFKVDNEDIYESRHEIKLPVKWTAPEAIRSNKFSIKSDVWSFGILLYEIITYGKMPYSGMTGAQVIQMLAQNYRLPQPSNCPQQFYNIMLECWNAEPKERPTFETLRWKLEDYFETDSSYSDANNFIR
SMILES = CN(C)c1ccc(C=C2C(=O)Nc3ccccc32)cc1; result = 102%
SMILES = O=C(O)c1ccc2c3c1cccc3c(=O)n1c3ccccc3nc21; result = 97.6%
SMILES = N#CC(C#N)=C(N)/C(C#N)=C/c1ccc(O)cc1; result = 99%
SMILES = Cn1sc(=O)n(Cc2ccccc2)c1=O; result = 112%
SMILES = Nc1ncnc2n[nH]c(Nc3ccc(F)cc3)c12; result = 90%
SMILES = CC(C)[C@H](CO)Nc1nc(Nc2cc(N)cc(Cl)c2)c2ncn(C(C)C)c2n1; result = 70.3%
SMILES = Oc1ccc(-c2nc(-c3ccncc3)c(-c3ccc(F)cc3)[nH]2)cc1; result = 90.4%
SMILES = COc1ccc(OC)c2c(=S)c3ccccc3[nH]c12; result = 88.8%
SMILES = NCCNc1ncc(C(N)=O)c(Nc2cccc(C(F)(F)F)c2)n1; result = 89.4%
SMILES = C#Cc1cccc(Nc2ncnc3cc(OCCOC)c(OCCOC)cc23)c1; result = 102%
SMILES = O=S(=O)(c1cccc2cnccc12)N1CCCNCC1; result = 78.1%
SMILES = COc1ccc(CNC(=O)Nc2ncc([N+](=O)[O-])s2)cc1; result = 97.2%
SMILES = COc1cc2ncnc(Nc3ccc(F)c(Cl)c3)c2cc1OCCCN1CCOCC1; result = 97.9%

Series 4 — effect on: enzyme activity; mode: inhibitor; concentration: 77 µM; reference: untreated; measurement: remaining activity
Target: DNA polymerase theta, ATPase domain (POLQ, Homo sapiens, UniProt O75417)
Chain of UniProt O75417 (whole entry, unmodified, looked up): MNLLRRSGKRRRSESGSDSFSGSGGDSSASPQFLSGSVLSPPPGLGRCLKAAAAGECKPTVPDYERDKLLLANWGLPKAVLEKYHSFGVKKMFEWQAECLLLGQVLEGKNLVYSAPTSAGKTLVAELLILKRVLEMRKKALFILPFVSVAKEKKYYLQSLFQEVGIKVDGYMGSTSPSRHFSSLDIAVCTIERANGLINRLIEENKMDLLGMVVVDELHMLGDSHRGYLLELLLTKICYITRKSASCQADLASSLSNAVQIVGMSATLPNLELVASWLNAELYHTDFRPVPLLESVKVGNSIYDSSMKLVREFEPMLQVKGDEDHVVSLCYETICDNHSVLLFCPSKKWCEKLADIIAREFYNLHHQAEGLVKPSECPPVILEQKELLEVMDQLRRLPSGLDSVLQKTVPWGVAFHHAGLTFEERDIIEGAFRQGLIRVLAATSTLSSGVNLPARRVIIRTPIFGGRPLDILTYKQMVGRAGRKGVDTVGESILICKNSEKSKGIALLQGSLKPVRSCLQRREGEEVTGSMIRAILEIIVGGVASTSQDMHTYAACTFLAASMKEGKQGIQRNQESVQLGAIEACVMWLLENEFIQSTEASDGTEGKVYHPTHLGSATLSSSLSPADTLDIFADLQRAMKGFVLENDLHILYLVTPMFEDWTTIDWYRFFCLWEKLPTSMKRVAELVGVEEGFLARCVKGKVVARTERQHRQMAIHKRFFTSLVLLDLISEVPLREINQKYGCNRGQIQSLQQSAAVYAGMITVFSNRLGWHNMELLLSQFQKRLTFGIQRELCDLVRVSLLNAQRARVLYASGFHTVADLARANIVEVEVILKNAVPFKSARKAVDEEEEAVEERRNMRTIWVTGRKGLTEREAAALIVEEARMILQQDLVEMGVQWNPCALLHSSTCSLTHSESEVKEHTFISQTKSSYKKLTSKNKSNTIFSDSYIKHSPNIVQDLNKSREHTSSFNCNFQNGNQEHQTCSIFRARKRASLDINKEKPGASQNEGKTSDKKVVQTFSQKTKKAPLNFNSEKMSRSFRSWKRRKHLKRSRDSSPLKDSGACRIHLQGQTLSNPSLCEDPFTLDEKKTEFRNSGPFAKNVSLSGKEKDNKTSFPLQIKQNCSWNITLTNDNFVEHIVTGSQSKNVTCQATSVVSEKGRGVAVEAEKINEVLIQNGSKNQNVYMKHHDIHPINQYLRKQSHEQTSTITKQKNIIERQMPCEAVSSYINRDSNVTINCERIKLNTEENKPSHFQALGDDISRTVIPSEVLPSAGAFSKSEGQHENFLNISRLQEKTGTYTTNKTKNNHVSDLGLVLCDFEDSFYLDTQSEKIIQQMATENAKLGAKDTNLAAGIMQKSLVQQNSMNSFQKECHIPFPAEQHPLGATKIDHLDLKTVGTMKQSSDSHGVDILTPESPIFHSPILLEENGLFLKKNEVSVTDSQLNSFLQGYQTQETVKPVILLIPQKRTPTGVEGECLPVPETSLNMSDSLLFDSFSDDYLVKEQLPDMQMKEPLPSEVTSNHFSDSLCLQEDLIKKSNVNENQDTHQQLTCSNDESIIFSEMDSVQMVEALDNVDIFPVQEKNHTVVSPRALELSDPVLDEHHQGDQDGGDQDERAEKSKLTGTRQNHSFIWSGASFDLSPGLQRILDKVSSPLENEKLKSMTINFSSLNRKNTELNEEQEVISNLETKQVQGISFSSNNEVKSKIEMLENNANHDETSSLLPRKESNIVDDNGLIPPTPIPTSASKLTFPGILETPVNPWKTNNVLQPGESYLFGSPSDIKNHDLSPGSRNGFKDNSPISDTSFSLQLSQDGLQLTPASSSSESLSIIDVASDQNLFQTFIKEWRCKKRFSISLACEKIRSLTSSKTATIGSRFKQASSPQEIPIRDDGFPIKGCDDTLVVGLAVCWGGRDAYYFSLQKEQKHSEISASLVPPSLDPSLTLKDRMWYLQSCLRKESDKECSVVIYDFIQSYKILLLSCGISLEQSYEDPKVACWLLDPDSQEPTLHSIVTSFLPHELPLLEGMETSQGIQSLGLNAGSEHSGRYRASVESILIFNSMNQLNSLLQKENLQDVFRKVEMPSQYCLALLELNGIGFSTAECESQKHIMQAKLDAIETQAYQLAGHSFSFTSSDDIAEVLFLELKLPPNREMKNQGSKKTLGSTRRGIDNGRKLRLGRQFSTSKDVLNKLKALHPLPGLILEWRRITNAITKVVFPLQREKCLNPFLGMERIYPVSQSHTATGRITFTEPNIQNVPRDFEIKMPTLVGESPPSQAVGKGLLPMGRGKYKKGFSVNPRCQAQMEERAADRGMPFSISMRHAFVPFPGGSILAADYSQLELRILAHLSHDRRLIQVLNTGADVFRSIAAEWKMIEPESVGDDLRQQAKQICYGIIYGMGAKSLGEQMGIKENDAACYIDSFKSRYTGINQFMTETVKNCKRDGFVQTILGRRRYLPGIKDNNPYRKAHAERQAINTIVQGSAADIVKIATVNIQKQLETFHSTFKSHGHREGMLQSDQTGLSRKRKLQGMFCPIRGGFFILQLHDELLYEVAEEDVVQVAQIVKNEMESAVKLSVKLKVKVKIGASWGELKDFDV
SMILES = CCn1cc(C(=O)O)c(=O)c2cc(F)c(N3CCNCC3)nc21; result = 93.2%
SMILES = CCCCC(=O)O[C@H]1CC[C@H]2[C@@H]3CCc4cc(O)ccc4[C@H]3CC[C@]12C; result = 99.3%
SMILES = COc1ccc(-c2cc(=O)c3c(O)c(OC)c(OC)cc3o2)cc1O; result = 98.1%

Excerpt of the above (series 2):
target = Interleukin-1 receptor-associated kinase 3, with CDC37 (IRAK3, Homo sapiens, UniProt Q9Y616); test = cell-based kinome screen; test system = human cells; scale = reference: vehicle; result = -0.052
target = CAMK2B (Homo sapiens, UniProt Q13554); test = cell-based kinome profiling; test system = human cells; scale = reference: vehicle control; result = -0.164
target = Ephrin type-B receptor 1, with CDC37 (EPHB1, Homo sapiens, UniProt P54762); test = cell-based kinome screen; test system = human cells; scale = reference: vehicle; result = -0.016
target = FLT4 (Homo sapiens, UniProt P35916, H1035R); test = cell-based translocation; test system = human cells; conditions = hereditary lymphedema type 1A variant; scale = reference: vehicle; result = -0.29
